Measurements of several laboratories.
Protocols differ between the studies behind these lines. Several values in a cell are separate wells, animals, samples, runs or records. ± marks the error that the study gave.
Chain of UniProt Q96BR1 (whole entry, looked up): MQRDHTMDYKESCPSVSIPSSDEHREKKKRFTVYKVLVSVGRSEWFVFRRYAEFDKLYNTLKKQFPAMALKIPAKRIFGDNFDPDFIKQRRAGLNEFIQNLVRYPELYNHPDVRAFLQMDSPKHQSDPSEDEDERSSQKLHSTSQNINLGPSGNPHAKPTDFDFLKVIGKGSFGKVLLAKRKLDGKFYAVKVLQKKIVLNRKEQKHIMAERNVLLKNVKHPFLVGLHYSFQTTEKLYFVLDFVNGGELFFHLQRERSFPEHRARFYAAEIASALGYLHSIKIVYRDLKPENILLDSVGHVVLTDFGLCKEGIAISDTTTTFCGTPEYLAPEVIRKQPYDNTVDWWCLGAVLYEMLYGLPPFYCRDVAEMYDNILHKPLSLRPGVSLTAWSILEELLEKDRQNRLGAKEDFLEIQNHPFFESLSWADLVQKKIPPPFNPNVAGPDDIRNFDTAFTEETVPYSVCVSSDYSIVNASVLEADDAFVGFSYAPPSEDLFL
Chain of UniProt Q96RG2 (whole entry, looked up): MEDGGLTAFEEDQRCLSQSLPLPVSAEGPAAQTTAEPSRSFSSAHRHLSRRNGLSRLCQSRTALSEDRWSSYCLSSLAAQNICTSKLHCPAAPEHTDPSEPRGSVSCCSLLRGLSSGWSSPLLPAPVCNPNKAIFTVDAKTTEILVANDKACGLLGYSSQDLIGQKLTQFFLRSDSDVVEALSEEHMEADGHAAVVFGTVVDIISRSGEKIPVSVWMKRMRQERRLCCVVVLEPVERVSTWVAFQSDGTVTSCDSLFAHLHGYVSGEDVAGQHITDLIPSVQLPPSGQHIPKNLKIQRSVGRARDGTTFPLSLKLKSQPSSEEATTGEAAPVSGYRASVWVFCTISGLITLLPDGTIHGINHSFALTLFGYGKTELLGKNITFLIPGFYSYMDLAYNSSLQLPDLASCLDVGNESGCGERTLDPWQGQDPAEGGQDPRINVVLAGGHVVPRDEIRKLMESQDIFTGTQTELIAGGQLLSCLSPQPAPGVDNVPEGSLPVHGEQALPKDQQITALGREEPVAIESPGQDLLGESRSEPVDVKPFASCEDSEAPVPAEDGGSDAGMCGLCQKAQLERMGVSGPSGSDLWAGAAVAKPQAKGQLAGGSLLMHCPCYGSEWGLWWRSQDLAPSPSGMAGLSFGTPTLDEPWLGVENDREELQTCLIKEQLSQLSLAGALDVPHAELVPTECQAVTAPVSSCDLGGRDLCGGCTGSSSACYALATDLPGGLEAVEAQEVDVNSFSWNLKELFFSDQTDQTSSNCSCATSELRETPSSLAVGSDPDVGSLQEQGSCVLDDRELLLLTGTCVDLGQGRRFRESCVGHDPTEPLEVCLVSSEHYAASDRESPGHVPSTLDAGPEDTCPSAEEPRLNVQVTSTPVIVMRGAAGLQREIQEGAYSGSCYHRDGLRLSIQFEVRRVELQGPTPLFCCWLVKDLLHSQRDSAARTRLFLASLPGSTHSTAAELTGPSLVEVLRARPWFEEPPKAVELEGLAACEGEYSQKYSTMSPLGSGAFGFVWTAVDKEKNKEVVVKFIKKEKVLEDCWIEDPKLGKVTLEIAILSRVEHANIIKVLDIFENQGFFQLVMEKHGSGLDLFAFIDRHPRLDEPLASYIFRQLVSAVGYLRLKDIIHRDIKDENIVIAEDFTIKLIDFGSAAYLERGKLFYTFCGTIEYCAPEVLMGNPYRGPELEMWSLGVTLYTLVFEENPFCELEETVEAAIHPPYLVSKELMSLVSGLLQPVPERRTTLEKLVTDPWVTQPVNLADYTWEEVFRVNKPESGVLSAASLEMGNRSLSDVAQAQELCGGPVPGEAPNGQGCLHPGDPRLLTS
Chain of UniProt Q02763 (whole entry, looked up): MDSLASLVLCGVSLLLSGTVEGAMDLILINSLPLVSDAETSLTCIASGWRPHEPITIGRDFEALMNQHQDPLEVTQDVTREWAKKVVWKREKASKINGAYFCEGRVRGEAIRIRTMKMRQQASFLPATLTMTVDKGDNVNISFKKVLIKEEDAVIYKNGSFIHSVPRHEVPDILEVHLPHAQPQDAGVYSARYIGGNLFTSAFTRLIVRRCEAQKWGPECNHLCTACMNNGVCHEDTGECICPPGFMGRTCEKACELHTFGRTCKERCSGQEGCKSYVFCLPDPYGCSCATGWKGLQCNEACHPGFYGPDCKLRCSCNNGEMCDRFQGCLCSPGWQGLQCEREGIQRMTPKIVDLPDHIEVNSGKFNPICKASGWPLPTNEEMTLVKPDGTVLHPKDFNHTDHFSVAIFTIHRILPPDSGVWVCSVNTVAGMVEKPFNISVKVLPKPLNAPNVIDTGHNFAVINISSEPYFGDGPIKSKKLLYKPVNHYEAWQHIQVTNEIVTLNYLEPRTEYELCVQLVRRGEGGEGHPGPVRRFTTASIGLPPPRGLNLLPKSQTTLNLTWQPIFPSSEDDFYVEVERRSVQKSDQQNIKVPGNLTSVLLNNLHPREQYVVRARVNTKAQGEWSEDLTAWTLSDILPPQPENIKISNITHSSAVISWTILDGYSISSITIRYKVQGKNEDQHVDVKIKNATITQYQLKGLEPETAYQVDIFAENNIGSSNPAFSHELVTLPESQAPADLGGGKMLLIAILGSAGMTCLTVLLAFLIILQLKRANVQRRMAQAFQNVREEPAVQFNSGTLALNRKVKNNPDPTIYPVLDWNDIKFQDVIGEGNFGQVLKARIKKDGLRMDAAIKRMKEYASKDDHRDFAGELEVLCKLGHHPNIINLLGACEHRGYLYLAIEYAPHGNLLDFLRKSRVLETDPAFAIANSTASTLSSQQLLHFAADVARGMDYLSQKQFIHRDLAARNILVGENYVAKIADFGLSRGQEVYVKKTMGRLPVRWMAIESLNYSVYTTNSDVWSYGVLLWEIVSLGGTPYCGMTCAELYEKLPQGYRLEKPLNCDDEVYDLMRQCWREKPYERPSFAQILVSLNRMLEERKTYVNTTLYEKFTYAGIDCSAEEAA

SMILES | target or system | assay | system | conditions | scale | endpoint | value
COc1ccccc1-c1n[nH]c2nc(NC3CCN(C(=O)Cc4ccc(F)cc4F)CC3)ncc12 |  | bead binding, competition bead pull-down, refers to: LINJ.05.0500 | Leishmania donovani axenic amastigote extract | 10 µM | reference: vehicle | relative abundance | 1.05
CS(C)(=O)=Nc1ccc(-c2ccc(-c3nc4cc(O[C@@H]5CO[C@H]6[C@@H]5OC[C@H]6O)[nH]c4cc3F)cc2)cc1 | Angiopoietin-1 receptor (TEK, Homo sapiens, UniProt Q02763) | enzyme activity, inhibitor |  | 10 µM |  | inhibition | -19%
COc1ccccc1-c1n[nH]c2nc(N[C@H]3CC[C@H](NS(=O)(=O)CC(C)C)CC3)ncc12 |  | bead binding, competition bead pull-down, refers to: LINJ.34.0150 | Leishmania donovani extract | 10 µM | reference: vehicle | relative abundance | 1.21
CC(C)[C@H](NC(=O)[C@H](CCCNC(=N)N)NC(=O)[C@@H]1CCCN1C(=O)[C@@H](NC(=O)[C@H](C)NC(=O)[C@H](Cc1ccc(O)cc1)NC(=O)[C@H](CCC(N)=O)NC(=O)[C@H](CCCCN)NC(=O)[C@H](CCCNC(=N)N)NC(=O)[C@@H]1CCCN1C(=O)[C@H](CCC(=O)O)NC(=O)[C@@H](NC(=O)[C@H](C)N)[C@@H](C)O)[C@@H](C)O)C(=O)N[C@@H](Cc1ccccc1)C(=O)N[C@@H](Cc1c[nH]c2ccccc12)C(=O)N[C@H](C(=O)N[C@@H](CC(=O)O)C(=O)N[C@@H](C)C(=O)N1CCC[C@H]1C(=O)NCC(=O)NCCOCCOCCOCCOCCOCCOCCOCCOCCOCCOCCOCCOCCC(=O)N[C@@H](CS)C(N)=O)[C@@H](C)O |  | phage binding | NSCLC cell line panel | selectivity at least 20 |  | number of cell lines | 6
CCCC[C@@H]1NC(=O)[C@H](Cc2ccc(O)cc2)NC(=O)[C@@H]2CCCN2C(=O)[C@H](CC(=O)O)NC(=O)[C@H](C)NC(=O)[C@H](Cc2ccccc2)NC(=O)[C@@H]2CSCCC(=O)N3CN(CN(C3)C(=O)CCSC[C@@H](C(=O)N[C@@H](C)C(N)=O)NC1=O)C(=O)CCSC[C@H](NC(C)=O)C(=O)N[C@@H](CC(C)(C)C)C(=O)N1CCC[C@H]1C(=O)N[C@@H](CCC(=O)O)C(=O)N[C@H](CCCCNC(=O)CCc1cn(CCOCCOCCOCCN(CCOCCOCCOCCC(=O)N[C@H]3CSCCC(=O)N4CN5CN(C4)C(=O)CCSC[C@H](NC(=O)[C@@H](CC(=O)O)NC(=O)[C@H](Cc4cccc6ccccc46)NC(=O)[C@@H]4CCCN4C3=O)C(=O)N[C@@H](CCSC)C(=O)N[C@@H](CCCCNC(=N)N)C(=O)N[C@@H](CC(=O)O)C(=O)N[C@@H](Cc3c[nH]c4ccccc34)C(=O)N[C@@H](CO)C(=O)N[C@@H]([C@@H](C)O)C(=O)N3CCC[C@H]3C(=O)N3C[C@H](O)C[C@H]3C(=O)N[C@@H](Cc3c[nH]c4ccccc34)C(=O)N[C@H](C(N)=O)CSCCC5=O)CCOCCOCCOCCn3cc(CCC(=O)NCCCC[C@H]4NC(=O)[C@H](CCC(=O)O)NC(=O)[C@@H]5CCCN5C(=O)[C@H](CC(C)(C)C)NC(=O)[C@@H](NC(C)=O)CSCCC(=O)N5CN6CN(C5)C(=O)CCSC[C@H](NC(=O)[C@H](Cc5ccc(O)cc5)NC(=O)[C@@H]5CCCN5C4=O)C(=O)N[C@@H](Cc4ccccc4)C(=O)N[C@@H](C)C(=O)N[C@@H](CC(=O)O)C(=O)N4CCC[C@H]4C(=O)N[C@@H](Cc4ccc(O)cc4)C(=O)N[C@@H](CCCC)C(=O)N[C@H](C(=O)N[C@@H](C)C(N)=O)CSCCC6=O)nn3)nn1)C(=O)N1CCC[C@H]1C(=O)N[C@@H](Cc1ccc(O)cc1)C(=O)N2 |  | NanoString, refers to: Cd164-mRNA | mouse bearing MC38-Nectin-4 tumour, circulating white blood cells | 5 mg/kg, 24 h after dosing, unit not given | reference: vehicle | mRNA level | 1.24
CC(C)(C)C(=O)OCOP(=O)(OCOC(=O)C(C)(C)C)C1CCCN(O)C1=O (stereo not shown) | NCI-H522 |  |  |  |  | log GI50 | -6.51 log M
CC(C)c1cc2c(c(O)c1O)[C@@]1(C(=O)O)CCCC(C)(C)[C@@H]1CC2 |  |  | C57BL/6 mice, subcutaneous lung adenocarcinoma | iv, 3 mg/kg every two days, six doses, 48 h |  | tumour growth inhibition | 46.3%
CCc1nnc(-c2c(OC)cc(-c3cnc4cc(-c5cnn(C)c5)ccn34)cc2OC)o1 |  | histomorphometry | male C57BL/6J mouse, tibia | oral gavage, 40 mg/kg once daily, 3 wk |  | osteoid surface/bone surface | 3.77 ± 0.937%
O=C(NCc1cc(F)cc(F)c1)[C@@]1(O)CCN(c2ccc3[nH]ccc3c2)C1=O |  |  | sample B PDX mouse | dose not given, RTV endpoint 500% |  | median survival time | 16 days
Cc1cc(NC(=O)C(=O)N2C[C@@H](C)CC[C@@H]2c2ccc3scnc3c2)cnc1N |  |  | mouse, U-87 MG MTAP-null orthotopic glioblastoma | oral, dose not given |  | median survival increase | 3 fold
O=C1NC2(CC2)COc2ncc(F)cc2[C@H]2COCCN2c2ccn3ncc1c3n2 |  |  | Sprague-Dawley rat, female, serum | oral, 10 mg/kg/day, end of recovery, 4-week subacute toxicity |  | serum total bilirubin | 1.4 ± 0.5 µmol/L
CN(C)[C@H]1C[C@@]23CC[C@@]4(O2)C(=CC[C@]2(C)[C@@H](c5ccc6ccncc6c5)CC[C@H]24)C=C3[C@@H](O)[C@@H]1O | Serine/threonine-protein kinase Sgk3 (SGK3, Homo sapiens, UniProt Q96BR1) | ATP probe labelling, inhibitor, KiNativ profiling |  | 1 µM |  | inhibition | -1.2%
CCCCCC1=C(NCC)C(=O)C(C/C=C(\C)CCC=C(C)C)=C(O)C1=O |  | RNA-Seq, refers to: Ifitm3 mRNA | mice, AAV9-A53T α-synuclein lesion, lesioned striatum | oral, dose not given | reference: vehicle-treated lesioned mice | log2 fold change | 1.02
O=C(O)c1ccc(-c2nc(-c3ccccc3Cl)c3sccn23)cc1 |  |  | CD34+ hematopoietic stem cells, human | 0.1 mM |  | CFU-GM colony count | 66 and 71
CC(C)C[C@@H]1NC(=O)[C@@H](Cc2c[nH]c3ccccc23)NC(=O)[C@H](CCCNC(=N)N)NC(=O)[C@@H](CCC(=O)O)NC(=O)[C@H](CCC(N)=O)NC(=O)[C@@H](CCC(=O)O)NC(=O)[C@H](CCCNC(=N)N)NC(=O)[C@@H](Cc2c[nH]c3ccccc23)NC1=O |  | Luminex, refers to: IL1a | LDLr-/- mice, Western diet, liver | dose not given, 4 weeks |  | cytokine level | 1100 ± 190 pg/g tissue
O=c1n(CCNCCOS(=O)(=O)c2ccccc2)c(=O)n(S(=O)(=O)c2ccccc2)c(=O)n1S(=O)(=O)c1ccccc1 |  | DPPH scavenging |  | 250 µg/mL |  | inhibition | 51.2%
CC[C@H](C)[C@H](NC(=O)[C@H](CO)NC(=O)[C@H](Cc1ccc(O)cc1)NC(=O)[C@H](Cc1ccc(O)cc1)NC(=O)[C@H](CC(N)=O)NC(=O)CNC(=O)[C@H](CO)NC(=O)[C@H](Cc1ccc(O)cc1)NC(=O)[C@H](CO)NC(=O)[C@H](CO)NC(=O)[C@H](CC(N)=O)NC(=O)COCCOCCNC(=O)CN1CCN(CC(=O)O)CCN(CC(=O)O)CCN(CC(=O)O)CC1)C(=O)N[C@@H](CC(C)C)C(N)=O [copper-64 labelled] |  | dynamic PET | mouse, tamoxifen-induced PDAC, tumor | intravenous, 0.1 µg/mouse, 1.9 min |  | tumour uptake | 17.7 %ID/mL
CN(C)c1ncnc2c1ncn2[C@@H]1O[C@H](CCl)[C@@H](NC(=O)[C@H](N)CSC(c2ccccc2)c2ccccc2)[C@H]1O |  | protein synthesis, refers to: GFP | human cell-free translation | 25 µM |  | inhibition | 0%
O=C1NC(=O)c2c1c1cc(F)c[n+]3c1c1c2c2cc(O)ccc2[n]1[Ru-4]312([N]=C=S)[S+]3CC[S+]1CC[S+]2CC3 (stereo not shown) | PAS domain-containing serine/threonine-protein kinase (PASK, Homo sapiens, UniProt Q96RG2) | enzyme activity |  | 100 nM, human enzyme, with: 10 µM ATP | reference: untreated | remaining activity | 68%

Some of these lines once more:
SMILES | target or system | assay | system | conditions | scale | endpoint | value
O=C(O)c1ccc(-c2nc(-c3ccccc3Cl)c3sccn23)cc1 |  |  | CD34+ hematopoietic stem cells, human | 0.1 mM |  | CFU-GM colony count | 66 and 71
CC(C)C[C@@H]1NC(=O)[C@@H](Cc2c[nH]c3ccccc23)NC(=O)[C@H](CCCNC(=N)N)NC(=O)[C@@H](CCC(=O)O)NC(=O)[C@H](CCC(N)=O)NC(=O)[C@@H](CCC(=O)O)NC(=O)[C@H](CCCNC(=N)N)NC(=O)[C@@H](Cc2c[nH]c3ccccc23)NC1=O |  | Luminex, refers to: IL1a | LDLr-/- mice, Western diet, liver | dose not given, 4 weeks |  | cytokine level | 1100 ± 190 pg/g tissue
O=c1n(CCNCCOS(=O)(=O)c2ccccc2)c(=O)n(S(=O)(=O)c2ccccc2)c(=O)n1S(=O)(=O)c1ccccc1 |  | DPPH scavenging |  | 250 µg/mL |  | inhibition | 51.2%
